Published values pooled from the literature.

Nc1nc2cc(-c3ccc4ncc(C(=O)N5CCOCC5)n4c3)ccc2o1  patients with adverse events (measured: Fatigue, any cause, all grades; patients with advanced solid tumours; dose not given): 44%
CN1CC[C@@H](c2c(O)cc(O)c3c(=O)cc(-c4ccc(C(F)(F)F)cc4Cl)oc23)[C@@H]1CO  patients with adverse event (measured: Thrombocytopenia; relapsed AML; oral, 200 mg, grade 3-4, intermittent dosing): 10%
O=C1Nc2cc3[nH]nc(-c4ccncc4)c3cc2CN1Cc1ccccc1  patients with blurred vision (CTCAE v4.03; advanced solid tumour patients; intravenous, 1.8 mg/kg, schedules 1/2): 0%
CC(=O)c1c(C)c2cnc(Nc3ccc(C4CCN(CCS(C)(=O)=O)CC4)cn3)nc2n(C2CCCC2)c1=O  patients with any TEAE (HR+/HER2- advanced breast cancer patients; oral, dose not given, grade 3/4, total): 79%
CCN(CCO)CCCC(C)Nc1ccnc2cc(Cl)ccc12 (stereo not drawn)  patients with adverse event (measured: Purpura grade 1; newly diagnosed glioblastoma patients; oral, 200 mg/dose, with radiotherapy and temozolomide): 33%
N[C@@H]1c2ccccc2OC12CCN(c1cnc3c(N4CCCc5ncccc54)n[nH]c3n1)CC2  patients with serious TEAE (advanced solid tumour patients; oral, 10 mg once daily): 0%
COc1c(OCCCN2CCOCC2)ccc2c1N=C(NC(=O)c1cnc(N)nc1)N1CCN=C21  patients with adverse event (measured: Chills; patients with advanced malignancies; intravenous, dose not given, any grade, all cohorts, together with: gemcitabine): 26%
C=CCNc1c(O)cc2c(O)c1C[C@@H](C)C[C@H](OC)[C@H](O)[C@@H](C)/C=C(\C)[C@H](OC(N)=O)[C@@H](OC)/C=C\C=C(/C)C(=O)N2  patients with arthralgia TEAE (unresectable or metastatic STS, GIST, other; intravenous, 500 mg/m^2): 0%
CO[C@H]1C[C@@H]2CC[C@@H](C)[C@@](O)(O2)C(=O)C(=O)N2CCCC[C@H]2C(=O)O[C@H]([C@H](C)C[C@@H]2CC[C@@H](OC(=O)NCCOCCOCCOCCOCCOCCOCCOCCOCCC(=O)N3CCc4cc(Cn5nc(-c6ccc7oc(N)nc7c6)c6c(N)ncnc65)ccc4C3)[C@H](OC)C2)C[C@@H](O)[C@H](C)/C=C(\C)[C@@H](O)[C@@H](OC)C(=O)[C@H](C)C[C@H](C)/C=C/C=C/C=C/1C  patients with AE (measured: treatment-related AEs; patients with advanced solid tumours; intravenous, 1.6 mg/3 mg, any grade, weekly): 0%

For quick reference, copied from above:
CO[C@H]1C[C@@H]2CC[C@@H](C)[C@@](O)(O2)C(=O)C(=O)N2CCCC[C@H]2C(=O)O[C@H]([C@H](C)C[C@@H]2CC[C@@H](OC(=O)NCCOCCOCCOCCOCCOCCOCCOCCOCCC(=O)N3CCc4cc(Cn5nc(-c6ccc7oc(N)nc7c6)c6c(N)ncnc65)ccc4C3)[C@H](OC)C2)C[C@@H](O)[C@H](C)/C=C(\C)[C@@H](O)[C@@H](OC)C(=O)[C@H](C)C[C@H](C)/C=C/C=C/C=C/1C  patients with AE (measured: treatment-related AEs; patients with advanced solid tumours; intravenous, 1.6 mg/3 mg, any grade, weekly): 0%
